Published values from different studies.
Parts stem from different laboratories: compare values within a part only. Substitutions count along the parent as printed.

Block 1 — method: RNA Bind-n-Seq; form: RNA; matrix: in vitro; concentration: 1 µM; notes: whole 134-nt RNA, ends assumed; with: 150 mM KCl; reference: input library; reading: higher = stronger binding
Target: Ras GTPase-activating protein-binding protein 1, C-terminal RGG region (G3BP1, Homo sapiens, UniProt Q13283)
Sequence of UniProt Q13283 (whole entry, looked up): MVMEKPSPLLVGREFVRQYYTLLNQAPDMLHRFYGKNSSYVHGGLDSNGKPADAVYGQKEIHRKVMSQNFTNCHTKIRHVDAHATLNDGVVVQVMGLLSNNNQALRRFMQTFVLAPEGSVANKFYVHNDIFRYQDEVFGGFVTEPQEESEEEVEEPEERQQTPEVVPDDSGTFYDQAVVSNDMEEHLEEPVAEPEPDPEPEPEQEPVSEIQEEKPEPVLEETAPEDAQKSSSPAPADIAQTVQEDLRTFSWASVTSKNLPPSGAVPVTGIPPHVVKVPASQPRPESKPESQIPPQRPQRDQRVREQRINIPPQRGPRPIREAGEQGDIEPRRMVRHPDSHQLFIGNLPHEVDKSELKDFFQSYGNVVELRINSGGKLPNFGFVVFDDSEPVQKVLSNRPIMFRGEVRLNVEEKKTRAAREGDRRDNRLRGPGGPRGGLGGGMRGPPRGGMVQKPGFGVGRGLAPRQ
Shared flanks, not repeated: GGGAGUUCUACAGUCCGACGAUC … UGGAAUUCUCGGGUGUCAAGG
| Strand | log2 enrichment |
| --- | --- |
| UCCUGUGCUACACAUCGUAUGUACCGAAUCGGGAAAAAAGGGGAAAAAAGGGAAAAAAGGAAAGUAUUAUGUUACGCCGUUCGGAUCUGC | -1.21 |
| UCAAGUCCUGUGCUACACAUCGUAUGUACCGAAUCGGAGGUUUGGAAAAAAAGGAAAGUAUUAUGUUACGCCGUUCGGAUCUGCACUUCC | -1.51 |
| AAGUCCUGUGCUACACAUCGUAUGUACCGAAUCGGGGAAAAAGGGGUGGGGUGGGGAAAGUAUUAUGUUACGCCGUUCGGAUCUGCACUU | 1.55 |
| AAGUCCUGUGCUACACAUCGUAUGUACCGAAUCGGGGCCCCGGGGCCCCGGCCCCGGAAAGUAUUAUGUUACGCCGUUCGGAUCUGCACU | -1.88 |
| UCCUGUGCUACACAUCGUAUGUACCGAAUCGGGAAAAAGGGAAAAAGGGUUUUUUUGGGAAAGUAUUAUGUUACGCCGUUCGGAUCUGCA | -0.525 |
| UGGGAGGUGGAUUUUGUUUAUUUUUUUAGCUCAUUUCCAGGGGUGGGAAUUUUUUUUUAAUAUGUGUCAUGAAUAAAGUUGGUUUUGAAA | 3.51 |
| AGUCCUGUGCUACACAUCGUAUGUACCGAAUCGGAAAAAAAGGUUUGGUUUUUUUGGAAAGUAUUAUGUUACGCCGUUCGGAUCUGCACU | -2.11 |
| UGUGCUACACAUCGUAUGUACCGAAUCGGGGUUUUUUUGGGGUUUUUGGGGAAAAAAAGGGGAAAGUAUUAUGUUACGCCGUUCGGAUCU | 0.0932 |

Block 2 — target: FOSL2, bZIP domain (human); method: DHFR protein complementation; matrix: yeast; reference: wild-type JUN-FOS pair; reading: higher = stronger binding
Notes: single substitutions, most at no-binding floor
Starting sequence: JUN, bZIP domain (human); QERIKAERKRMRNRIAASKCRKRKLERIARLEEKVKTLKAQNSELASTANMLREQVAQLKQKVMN; partner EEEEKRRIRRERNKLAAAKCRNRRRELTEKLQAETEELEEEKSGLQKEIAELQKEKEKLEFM
| Substitution | binding fitness [natural log] |
| --- | --- |
| E32M | 0.0212 |
| Q55V | 0.00574 |
| A46T | 0.0976 |
| E33N | -0.091 |
| E33I | -0.161 |
| E44D | -0.146 |
| L31Q | -0.221 |
| S43G | 0.0726 |
| L38W | -1.09 |

Block 3 — method: DHFR PCA, deep sequencing; matrix: yeast; with: (+)-ABA 0.39 µM; reference: wild-type fitted maximum; reading: higher = stronger binding
Target: ABI1, truncated, D143A, DHFR fusion (Arabidopsis thaliana)
Notes: methotrexate growth selection, single substitutions
Starting sequence: PYL1, truncated, DHFR fusion (Arabidopsis thaliana); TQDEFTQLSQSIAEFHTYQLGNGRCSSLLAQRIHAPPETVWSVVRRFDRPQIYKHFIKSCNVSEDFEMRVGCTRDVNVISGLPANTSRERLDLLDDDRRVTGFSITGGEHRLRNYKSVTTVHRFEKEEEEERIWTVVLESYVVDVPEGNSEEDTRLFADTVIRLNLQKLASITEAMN
| Substitution | relative binding score |
| --- | --- |
| F56D | -2.74% |
| R90H | 10.9% |
| R74Y | -9.47% |
| S26Q | 9.15% |
| H16C | -14% |
| R32L | 44.3% |
| V100L | 10.1% |
| F66Q | 18.4% |
| L29F | -3.44% |
| K126T | 73.1% |
| L93N | -1.12% |
| E139S | 18.7% |

Block 4 — target: CCNB2, cyclin fold, Cln2 fusion (human); method: yeast growth competition, sequencing; matrix: yeast; notes: weak parent motif; reference: not given; reading: higher = stronger binding
Starting sequence: WEE1 docking peptide (human); HKTFRKLRLFDTP; partner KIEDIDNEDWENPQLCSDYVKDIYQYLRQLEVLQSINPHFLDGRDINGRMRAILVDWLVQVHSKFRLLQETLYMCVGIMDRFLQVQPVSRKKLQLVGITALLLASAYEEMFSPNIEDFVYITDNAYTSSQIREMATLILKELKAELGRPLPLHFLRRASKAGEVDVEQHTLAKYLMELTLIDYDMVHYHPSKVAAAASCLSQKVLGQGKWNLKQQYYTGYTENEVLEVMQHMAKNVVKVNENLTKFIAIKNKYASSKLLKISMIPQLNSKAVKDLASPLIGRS
| Substitution | normalised enrichment score |
| --- | --- |
| HKTFRKLRGFDTP [L9G] | 0.606 |
| HKTFRLLRLFDTP [K6L] | 0.00213 |
| HKAFRKLRLFDTP [T3A] | 0.361 |
| HKTFCKLRLFDTP [R5C] | -0.11 |
| HKTFRILRLFDTP [K6I] | 0.493 |
| HKMFRKLRLFDTP [T3M] | 0.349 |
| HKTFRKLRLDDTP [F10D] | 0.0871 |
| HKTFRKLRLFDTQ [P13Q] | 0.428 |
| HRTFRKLRLFDTP [K2R] | 0.711 |
| HKTVRKLRLFDTP [F4V] | 0.102 |
| HKTFRQLRLFDTP [K6Q] | 0.477 |
| HKTFRKLRLFPTP [D11P] | 0.902 |
| HKTNRKLRLFDTP [F4N] | 0.261 |
| HKTFYKLRLFDTP [R5Y] | 0.404 |

Block 5 — method: universal PBM; form: double-stranded DNA, one strand shown; matrix: in vitro; concentration: not given; reading: higher = stronger binding
Target: Sal-like protein 4, full length isoform B (SALL4, Homo sapiens, UniProt Q9UJQ4-2, residues 1-616)
Notes: 8-mer, flanks averaged, mean of replicates
Target sequence (chain): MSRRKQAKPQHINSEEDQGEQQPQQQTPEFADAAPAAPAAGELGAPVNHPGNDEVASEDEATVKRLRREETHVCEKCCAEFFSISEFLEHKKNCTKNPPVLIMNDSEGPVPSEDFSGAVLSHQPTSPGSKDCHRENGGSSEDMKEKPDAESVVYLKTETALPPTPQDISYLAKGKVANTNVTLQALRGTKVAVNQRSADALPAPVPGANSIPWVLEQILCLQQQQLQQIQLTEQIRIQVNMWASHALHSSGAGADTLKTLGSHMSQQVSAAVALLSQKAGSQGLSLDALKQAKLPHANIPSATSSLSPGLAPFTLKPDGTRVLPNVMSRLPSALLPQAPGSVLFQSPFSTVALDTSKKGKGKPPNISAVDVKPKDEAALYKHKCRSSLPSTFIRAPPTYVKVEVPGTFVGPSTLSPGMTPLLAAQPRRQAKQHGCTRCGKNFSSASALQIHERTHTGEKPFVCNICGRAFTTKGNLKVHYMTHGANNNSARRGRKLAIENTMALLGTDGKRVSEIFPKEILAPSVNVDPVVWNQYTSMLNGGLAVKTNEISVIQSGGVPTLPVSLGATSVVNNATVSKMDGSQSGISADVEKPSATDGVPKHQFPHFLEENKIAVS
| Strand | E-score |
| --- | --- |
| AGCTTCGC | -0.231 |
| ACGTGATC | -0.0049 |
| ACTTAGGG | -0.0747 |
| ACGTAAGA | 0.225 |
| CATGGGAC | -0.194 |
| CCTAAGTC | -0.256 |
| GCATTACA | 0.129 |
| AGCGATTC | -0.167 |
| CGGGAAAC | -0.0685 |
| CCCGCTCA | -0.346 |
| CTAAGCCC | -0.145 |
| AGTGAGTG | -0.103 |
| GTTGAAAA | 0.144 |
| TGACTGCA | -0.026 |
| TATCTGCA | 0.174 |
| AGATAGAG | 0.0799 |
| AATAAGGC | 0.177 |
| AAGTAGAC | -0.168 |
| CAAGCCGG | -0.262 |
| AGTAAGCG | -0.0981 |

Block 6 — method: protein binding microarray; form: double-stranded DNA, one strand shown; matrix: in vitro; concentration: not given; reference: not given; reading: higher = stronger binding
Target: Histone acetyltransferase KAT6A, winged helix 1, GST fusion (KAT6A, Homo sapiens, UniProt Q92794, residues 1-85)
Notes: 8-mer, flanks averaged, mean of 2 arrays, mostly near background
Target sequence (chain): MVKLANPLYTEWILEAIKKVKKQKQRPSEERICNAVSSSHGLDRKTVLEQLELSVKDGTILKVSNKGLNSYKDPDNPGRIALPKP
| Strand | E-score |
| --- | --- |
| ACCAACGA | -0.23 |
| GGATCCCA | -0.139 |
| GTCCTATA | 0.004 |
| AGCTTAAG | -0.261 |
| ACGGGGTG | 0.18 |
| CGCCAAAA | 0.0955 |
| ACACATAT | -0.168 |
| GCATTGCA | -0.104 |
| CGCCTTAC | 0.161 |
| ATCTTCGA | -0.0471 |
| CAGCCAGG | -0.265 |
| GTCATGAA | -0.079 |
| ACTCGTCC | -0.0623 |
| CTACGTCC | 0.0518 |
| AAAGATCA | -0.0861 |
| AAGACAAG | -0.025 |
| TCGCATAA | -0.0338 |
| TAACCGAA | -0.0869 |
| CTAACTTA | -0.0527 |
| AATCCTTG | -0.137 |
| CTGCGGAA | 0.165 |
| CGATCGAG | 0.0932 |
| AAACGGAC | 0.13 |
| AGAAACTG | -0.0686 |
| CCCCGGCA | 0.262 |

Block 7 — method: competition protein-binding microarray; form: double-stranded DNA, one strand shown; matrix: in vitro; concentration: 2 µM; with: Cbf1 competitor, 0.05 µM; reading: higher = stronger binding; shared flanks, not repeated: … GTCTTGATTCGCTTGACGCTGCTG
Target: Phosphate system positive regulatory protein PHO4, full length, GST-tagged (PHO4, Saccharomyces cerevisiae, UniProt P07270, residues 1-312)
Notes: whole 60-bp probe, lowest competitor level
Residues (chain): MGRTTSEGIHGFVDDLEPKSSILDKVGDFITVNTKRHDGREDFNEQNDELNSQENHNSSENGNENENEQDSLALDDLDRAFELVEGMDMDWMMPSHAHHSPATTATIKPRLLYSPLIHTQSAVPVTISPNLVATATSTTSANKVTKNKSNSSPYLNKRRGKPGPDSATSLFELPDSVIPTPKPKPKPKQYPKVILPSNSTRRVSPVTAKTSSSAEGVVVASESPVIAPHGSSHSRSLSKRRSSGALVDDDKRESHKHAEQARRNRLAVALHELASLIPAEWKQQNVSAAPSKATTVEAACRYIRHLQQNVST
| Strand | fluorescence intensity [a.u.] |
| --- | --- |
| CATACCCAACCTTGTCACGTTACTTAAGATATTTGT | 9090 |
| GTCTTGTCTCATTGTCACATAACTTTCCCCACTTCA | 4520 |
| CAAAAACAGCCTCCTCACGTGCCAGCATCTGTCTTG | 16400 |
| CAATCGTCCCGGTGCCACATGAACCAAAACATTTGC | 5540 |
| CAGAGAACCGGTAGCCACATGCAAACTAAAACTTTC | 8330 |
| CGCCTTCTAATGGACATTCTTCTCAAACTCTACAAA | 3090 |
| CTAACGAAGGTTTGTCACATTACTTACAAGCCAAGT | 4450 |
| CGTCCTAGTGATTGGAGAGTGGGTGCCATGAGGAAG | 6790 |
| AAGCTACATATAAGGAACGTGCTTTTACTCATCCTA | 13900 |
| CATACCCAACCTTGTCACGCTACTTAAGATATTTGT | 6840 |
| TGCGCAACAACTTGGTAAGTGGGTGTATGTCTAGAA | 4370 |
| TTGAACTCGCCGCCTCACCTGCCACTACGTCTTCCG | 3910 |
| AGCCCGGGGACTTGCCGCGTGGCACCTTGGGGCGCT | 9240 |
| TGCAAGCTTTAAAGCACCGTGGTGATTCTCGTAATG | 6820 |
| ATAAAAACACTGCGCAGCGTGCTTTTTCGGGTTCCA | 8100 |
| GAAGGCCGATGCTGTGCCGTGATGGTCTTTTCCGCA | 3290 |

For quick reference, copied from above (block 3):
| Substitution | relative binding score |
| --- | --- |
| F56D | -2.74% |
| R74Y | -9.47% |
| L93N | -1.12% |
| R90H | 10.9% |
| R32L | 44.3% |
| V100L | 10.1% |
| F66Q | 18.4% |
| S26Q | 9.15% |
| E139S | 18.7% |
